Measurements gathered from unrelated publications.
A part holds a random share of what one study measured.

Set 1
Target: Phosphate system positive regulatory protein PHO4, full length, GST-tagged (PHO4, Saccharomyces cerevisiae, UniProt P07270, residues 1-312)
Method: competition protein-binding microarray
Form: double-stranded DNA, one strand shown
Medium: in vitro
Tested at: 2 µM
Notes: whole 60-bp probe, lowest competitor level
Together with: Cbf1 competitor, 0.05 µM
Direction: higher = stronger binding
Shared flanks, not repeated: … GTCTTGATTCGCTTGACGCTGCTG
Residues (chain): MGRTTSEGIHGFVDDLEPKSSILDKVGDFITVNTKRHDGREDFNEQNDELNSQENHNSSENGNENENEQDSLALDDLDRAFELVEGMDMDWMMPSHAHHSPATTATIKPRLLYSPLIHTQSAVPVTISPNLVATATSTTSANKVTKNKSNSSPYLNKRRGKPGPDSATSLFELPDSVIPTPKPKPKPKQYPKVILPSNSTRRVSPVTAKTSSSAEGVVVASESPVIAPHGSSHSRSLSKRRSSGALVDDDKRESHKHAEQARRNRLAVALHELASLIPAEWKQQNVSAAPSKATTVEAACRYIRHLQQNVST
Strand	fluorescence intensity [a.u.]
TGCGCAACAACTTGATGCGTGGGTGTATGTCTAGAA	8630
CTAACGAAGGTTTCACACGTGTTTTACAAGCCAAGT	19100
ACAAATGGTAACTGGCACGTTAATTGGTTTAACATT	8710
TTTAATCGCTCTACCCACGTTTTTTTATCCAGTGCT	14300
CTTTCCCGATCTTGAGCCGTGGGTGTAGCACATTTG	4860
TGCGCAACAACTTTTCACGTGTACTTATGTCTAGAA	12900
CCGAAAAGCAACTGGCACGTTTTGAGCTCGGTGTTT	13700
CGTCCTAGTGATTTTCACGTGCGATCCATGAGGAAG	14800
TTGTTCCTCTGAAAGCACGGGCCGGCGCACTCCAAT	7100
CTAACGAAGGTTTTTCACGTGCCATACAAGCCAAGT	14900
GCCGCTGCACAATCTGGCGTGCCAGTAAAGCAATAT	5900
TGACACTTCATGTTACACGTGAGGAGCTTCACCTTC	11700
CATACCCAACCTTGTGGCGTGGGTGAAGATATTTGT	8100
AAATTACTAAGTTGTCCTGTGGGTGACGCCGTATGA	4330
TCATGTTAATTGTAACGGCTATATCTACTGGGTAGA	3060
TTACAATAATAAAAGCACGTGACAAAGTCCCTAGAT	15800
CTTCTGTAAATTTTCCACGTGTTTTGACGCGCCCCG	14700
AATGTGGGAATGTCGCACACGCTAATGTGGAATTGG	8790

Set 2
Target: Histone acetyltransferase KAT6A, winged helix 2, GST fusion (KAT6A, Homo sapiens, UniProt Q92794, residues 85-181)
Method: protein binding microarray
Form: double-stranded DNA, one strand shown
Medium: in vitro
Tested at: not given
Notes: 8-mer, flanks averaged, mean of 2 arrays, mostly near background
Baseline: not given
Direction: higher = stronger binding
Target sequence (chain): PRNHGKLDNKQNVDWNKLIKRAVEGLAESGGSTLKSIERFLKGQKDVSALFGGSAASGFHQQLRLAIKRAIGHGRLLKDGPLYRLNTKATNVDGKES
Strand	E-score
AGATTCAA	-0.046
AACGCCTT	-0.118
AATATCAT	0.103
CCAGAGGC	-0.0305
GACGATGC	0.0359
GCATCCCC	0.0972
GGTGCTTA	0.173
ACCTTGTG	0.0427
ACTGCGAT	0.0756
CCACAAAC	0.203
CTGATAGC	0.0858
CGTCTACC	-0.184
CGGTACGA	-0.0778
CTCAGCCA	-0.187
AACAACAT	0.0225
ATTTTATC	0.0706
ATAATAGA	-0.085

Set 3
Target: Hepatocyte nuclear factor 3-alpha (Foxa1, Mus musculus, UniProt P35582, residues 1-468, full length assumed)
UniProt P35582, sequence (whole entry, looked up): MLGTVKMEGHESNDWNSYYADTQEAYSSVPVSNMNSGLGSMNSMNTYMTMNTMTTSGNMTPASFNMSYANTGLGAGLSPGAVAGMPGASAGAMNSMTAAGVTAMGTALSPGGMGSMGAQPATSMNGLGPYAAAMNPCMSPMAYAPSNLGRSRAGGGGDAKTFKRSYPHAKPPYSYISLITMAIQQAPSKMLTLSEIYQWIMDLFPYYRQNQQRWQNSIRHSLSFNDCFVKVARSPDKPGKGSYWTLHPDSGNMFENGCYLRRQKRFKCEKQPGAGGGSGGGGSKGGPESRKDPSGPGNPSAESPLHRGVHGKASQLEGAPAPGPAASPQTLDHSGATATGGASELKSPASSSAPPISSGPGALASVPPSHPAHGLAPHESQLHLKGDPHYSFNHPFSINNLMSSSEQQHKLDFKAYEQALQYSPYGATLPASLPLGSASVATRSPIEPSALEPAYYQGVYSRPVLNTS
Method: EMSA with sequencing
Form: double-stranded DNA, one strand shown
Medium: in vitro
Tested at: 10 and 20 nM
Notes: whole designed probe, mean of two concentrations, ends assumed
Baseline: negative control set to 0
Direction: higher = stronger binding
Shared flanks, not repeated: GTGAGCGGTGCCCATTGATGGGGAAC … TTTCACTGGGATCGTGGGGAC
Strand	normalised bound fraction [ratio]
ATCTTCCCCCTCTTCCTTGCCCCACCAGCTCACCTACGGGGGTTATTTGCACAAAGGAAAATAAATAAAGCCGGCATTCGTTAACGCAGTTCACGCGCATACTGCTGTTTGCTCTGGATGAATCATGGTCCTTTGGCGACGCCAGGCTCCGGGAGAGCAAAGCACCGTGTCAGGGCCATGATCCGGGCTCGCC	0.395
ATCTTCCCCCTCTTCCTTGCCCCACCAGCTCACCTTCCCGGGTTATTTGCAGATAGGAAAATAAATAAAGCCGGCATTCGTTAACCCTCTTCTCAAACGGTGCGCTGTTTGCTCTGGATGAATCATGGTCCTTTGGCGACGCCAGGCTCCGGGAGAGCAAAGCACCGTGTCAGGGCCATGATCCGGGGTGGCC	0.376
GACACCATTTCGAACAAAACAAAACAGTTGCTCCCTTCCCTCTTGTTCCTCCCACTATTGCTGTCATTGCAAGCTCCTAGGAGCTGCCCTGTTATTTACATTGCAGTGGGCATGACTCAGGGAAGCAGCAGGCAGGGAGGAGGATGGGAAGCAAGAACCCAGCTGGGGCTAAGCAAGGTCCAGCTCATAATAT	0.412
ATCTTCCCCCTCTTCCTTGCCCCACCAGCTCACCTTCCCGGGTTATTTGCAGATAGGAAAATAAATAAAGCCGGCATTCGTTAACCCTCTGGTAGCCTACACTGCTGTTTGCTCTGGATGAATCATGGTCCTTTGGCGACGCCAGGCTCCGGGAGAGCAAAGCACCGTGTCAGGGCCATGATCCGGGGTGGCC	0.366
CACCGCGCTCGCACGGCTTTGTCCGTGCTACAAAGCAGCCTGTTAAACTATTGGAACTAATGCGCCGCAGCTGCGCGAGTGACTTCTGCTGCTTATGTACATAAAAAGTCCTGGGGGAGGGCTGTAACCATCAGATGCCTGCTGCTGGGTTGTTTGGCTAGTCTTTCCATTTGCTTATTCCTGAATCCAAAGG	0.343
CAATAAGTCAGTCACCGTGAAGCATTCTAAGCACTGAATAAGACAGAGCATCCATTCCACACCCTATTTCCATTCCCAGTTAATCTTCAAAGAGTCATCTTGGCAAAAACATTCCAAGATAAAAATAGCAAGATCTTCTAGAAAAGATTTAAGTTTCAAGGCAAAAAGAAAAATCCTTTATGGTTACTGAGTA	-0.0812
TCCATTAATAAGCCCATTCCACCCACATTCACAAACTTGCAACAGAGAAAAGATGGGAATATTTAGAATAATATATCCATACAATTTATGTCCCTGTTTACTTTTAATATTTTTGGAGCCCAATTCTCCGGATGTGCTCAAATCAGCCTCTGTAGACTCAGATGTTTTGAAAAGTATTTTGATTGCTAACATC	0.265
AATTCACATAAGTTCATTTTAAATGACTTAGTCAGTGCCAGCACTTATACCCATTTTCTACTTATCGGTGACATGAGTTAAGACACCTGACAATGTAATCTGCAATATGATCTCATTTGTGTGGATGATTTAAAATTTTATGTAAAGTTGTGATTTTTCAAGCCATCCTCAGTTTAGGGATATCTCCTTGAGC	-0.0733

Set 4
Target: Interferon regulatory factor 7, full length, phosphomimetic (IRF7, Homo sapiens, UniProt Q92985, residues 1-503, S471D/S472D/S475D/S476D/S477D/S483D/S484D/S487D)
UniProt Q92985, sequence (whole entry, unmodified, looked up): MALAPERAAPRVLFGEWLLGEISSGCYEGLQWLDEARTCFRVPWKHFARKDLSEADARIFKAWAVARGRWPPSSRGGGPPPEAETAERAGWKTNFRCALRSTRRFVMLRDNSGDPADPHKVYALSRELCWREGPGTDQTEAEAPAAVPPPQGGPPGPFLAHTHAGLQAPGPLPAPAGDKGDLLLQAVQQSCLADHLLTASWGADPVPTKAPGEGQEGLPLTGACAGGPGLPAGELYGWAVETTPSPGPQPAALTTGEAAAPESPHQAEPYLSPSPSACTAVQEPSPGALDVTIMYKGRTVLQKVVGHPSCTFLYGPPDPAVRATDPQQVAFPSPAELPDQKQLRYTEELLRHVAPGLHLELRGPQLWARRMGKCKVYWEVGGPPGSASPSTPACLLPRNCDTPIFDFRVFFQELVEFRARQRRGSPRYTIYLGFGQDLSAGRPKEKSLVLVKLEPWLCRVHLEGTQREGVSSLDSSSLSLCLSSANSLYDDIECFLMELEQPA
Method: protein-binding microarray
Form: double-stranded DNA, one strand shown
Medium: in vitro
Tested at: 2200 nM top
Notes: 60-bp whole probe
Together with: salmon DNA 0.4 mg/ml
Baseline: random background probes
Direction: higher = stronger binding
Shared flanks, not repeated: GCCTAGCAC … GTCTTGATTCGCTTGACGCTGCTG
Strand	fitted relative affinity [z-score]
TTAGGTTTCGGACTGGGTGAGTGCTAG	3.41
TTGGGTCTCGGTCTCGGTTAGTGCTAG	0.658
GACGGACTGGGTATCGAGACGTGCTAG	-0.519
TTAGATTTCCTACTGCTTTAGTGCTAG	1.12
GAGGAACTGAGTTTCGAGACGTGCTAG	1.71
TTAGGTTTCCTTATCCTTTTGTGCTAG	2.23
TCCTCTTTCACTGCTCCCCAAGTGCTA	2.87
GACGGACTGGGTTTTGGGACGTGCTAG	-0.496
ACCATTTTGGTTTTCCTTATGTGCTAG	3.42
TTAGGTCTCGGGACTGGGTTAGTGCTA	-0.423
TCAGTCTTGGTTCTCAGACTGTGCTAG	1.01
TTAGGTATCGTTATCGGTTAGTGCTAG	1.31
TTAGGACTGGTGTTTCGGTTAGTGCTA	2.83
CACGATATCAGTTTCGAGACGTGCTAG	3.86
AACGGTTTCGGGACTGGGGACGTGCTA	3.85
GACGGTATCGGGACTGGGGCCGTGCTA	-0.745
GAGAGTAGCTTTCTGAGGGCGTGCTAG	-0.31
GACGGTATCGGGTATCGGTACGTGCTA	0.126
TTAGGTTTCGGTATCGGATAGTGCTAG	7.41
TTAGATATCAGTTCCGATTAGTGCTAG	0.958
GACGGACTGGGTTTGGGGACGTGCTAG	-0.814
CCTAATTCTCTTTTCACTTTGTGCTAG	3.68
GAGTGTTTCTTCTGCTGACAGTGCTAG	1.14
TTAGAACTGAGTCTCGATTTGTGCTAG	0.48
GACGGACTGCACTTTCGGGACGTGCTA	3.87
